Results from different studies.
Each line is one published result; not all experiments were run side by side.

C[C@@H](Oc1cc(-c2cnn(C3CCNCC3)c2)cnc1N)c1c(Cl)ccc(F)c1Cl — AUCtau (human patients, plasma; oral, dose not given, cycle 2 day 1, geometric mean, added: avelumab): 2760 ng·h/mL
Fc1ccc([C@@H]2CCNC[C@H]2COc2ccc3c(c2)OCO3)cc1 — AUCtau (human, all CYP2D6 genotypes; oral, 20 mg, steady state, dosing interval 24 h, geometric mean): 511 ng·h/mL
CC(=O)N1CCN(c2ccc(OCC3COC(Cn4ccnc4)(c4ccc(Cl)cc4Cl)O3)cc2)CC1 (stereo not drawn) — AUCtau (healthy humans, both sexes, plasma; oral, 200 mg twice daily, compound alone): 31500 ng·h/mL
Cc1noc(C)c1-c1cc(C(O)(c2ccccn2)c2ccccn2)c2nc(C3CC3)[nH]c2c1 — AUCtau (human, plasma; oral, 0.6 mg, cycle 1 day 8, monotherapy): 643 ng·h/mL
Cc1cc(-c2nccc3c2ccn3CC(=O)Nc2ccc(-c3cnccn3)cn2)ccn1 — AUCtau (human, plasma; oral, 5 mg once daily, day 16, geometric mean): 0.534 µM·h
C[C@H]1Oc2cc(cnc2N)-c2c(nn(C)c2C#N)CN(C)C(=O)c2ccc(F)cc21 — AUCtau (human patients, plasma; oral, dose not given, cycle 2 day 1, geometric mean, added: avelumab): 5810 ng·h/mL
C=CC(=O)Nc1cc(Nc2nccc(Nc3cc(Cl)c(F)cc3C(C)(C)O)n2)c(OC)cc1N1CC[C@@H](N(C)C)C1 — AUCtau (human patients, plasma; oral, 300 mg daily, cycle 2 day 1, geometric mean): 9130 ng·h/mL
COc1ccc(F)cc1C(=O)NCc1ccc(-c2nn([C@@H](C)C(F)(F)F)c(N)c2C(N)=O)cc1 — AUCtau (human, plasma; oral, 200 mg once daily, added: oral repaglinide): 105000 ng·h/mL
CCCCCCCOc1ccc(CCC(N)(CO)CO)cc1C(F)(F)F.Cl — AUCtau (healthy male humans, plasma; 0.125 mg, day 21, mean): 17.5 ng·h/mL

A few entries again:
CC(=O)N1CCN(c2ccc(OCC3COC(Cn4ccnc4)(c4ccc(Cl)cc4Cl)O3)cc2)CC1 (stereo not drawn) — AUCtau (healthy humans, both sexes, plasma; oral, 200 mg twice daily, compound alone): 31500 ng·h/mL
